Results pooled from the literature.
Parts stem from different laboratories: compare values within a part only.

Sample 1
Cell line: HEK-293T/ACE2
Tested at: 10 µM
Time: 16 h
Relative to: vehicle
With `CCCCCCCCCCC[C@@H](C[C@@H]1OC(=O)[C@H]1CCCCCC)OC(=O)[C@H](CC(C)C)NC=O` the viability was 98.9%.
`Cc1cn([C@H]2C=C[C@@H](CO)O2)c(=O)[nH]c1=O` has a viability of 100%.
`COc1ccc2[nH]c([S+]([O-])Cc3ncc(C)c(OC)c3C)nc2c1` (centres unmarked) has a viability of 100%.
The viability of `COc1ncnc(NS(=O)(=O)c2ccc(N)cc2)c1OC` is reported as 99.3%.

Sample 2
Target: Replicase polyprotein 1ab, polymerase (rep, Severe acute respiratory syndrome coronavirus 2, UniProt P0DTD1)
Effect on: enzyme activity
Action: inhibitor
Tested at: 20 µM
For `C[C@H]1O[C@@H](O[C@H]2[C@@H](O)C[C@H](O[C@H]3[C@@H](O)C[C@H](O[C@H]4CC[C@@]5(C)[C@H](CC[C@@H]6[C@@H]5C[C@@H](O)[C@]5(C)[C@@H](C7=CC(=O)OC7)CC[C@]65O)C4)O[C@@H]3C)O[C@@H]2C)C[C@H](O)[C@@H]1O`, the inhibition was 15.1%.
`COc1ccc2c(c1)-c1nn(CCCN(C)C)c3ccc([N+](=O)[O-])c(c13)N2` gave an inhibition of 30.5%.
`Cl[C@H]1[C@H](Cl)[C@@H](Cl)[C@@H](Cl)[C@H](Cl)[C@H]1Cl` gave an inhibition of -0.01%.
For `CN[C@H](CNC(=O)N1CCC[C@@H]([C@@H](OCCNC(=O)OC)c2cccc(Cl)c2)C1)C[C@H]1CCCOC1`, the inhibition was 0.5%.
The inhibition of `COC(=O)[C@H](CC(C)C)NC(=O)[C@@H](N)CC(C)C` is reported as -6.8%.
For `NC[C@H]1O[C@H](O[C@H]2[C@H](O)[C@@H](O[C@H]3O[C@H](CO)[C@@H](O)[C@H](N)[C@H]3O)[C@H](N)C[C@@H]2N)[C@H](O)[C@@H](O)[C@@H]1O`, the inhibition was 15.8%.
`CCOCCn1c(C2CCN(CCc3ccc(C(C)(C)C(=O)O)cc3)CC2)nc2ccccc21` has an inhibition of -10.8%.
With `Oc1cccc(-c2nc(N3CCOCC3)c3oc4ncccc4c3n2)c1` the inhibition was -0.3%.
For `COC(=O)N1CCN(Cc2cccc(NC(=O)Nc3ccc(C)nc3)c2F)CC1`, the inhibition was 3.6%.
The inhibition of `FC(F)c1nc2ccccc2n1-c1nc(N2CCOCC2)nc(N2CCOCC2)n1` is reported as 0.12%.
With `N[C@H]1C[C@@H]1c1ccc(-c2cccc(O)c2)cc1` the inhibition was 1.8%.
The inhibition of `CS(=O)(=O)Nc1ccc(Cc2noc(-c3ccc4[nH]cc(CCN)c4c3)n2)cc1` is reported as 7.76%.
`O=C(OCCOCCO)c1ccccc1Nc1cccc(C(F)(F)F)c1` has an inhibition of 1.22%.
The inhibition of `CCc1cc2cc(OC)c(OC)cc2c(Cc2ccccc2)n1` is reported as 4.69%.
With `Cc1nc2ccc(Oc3ccc(F)cc3)cc2c(=O)n1C[C@H]1CCCN(C(C)C)C1` the inhibition was 1.91%.
`C[C@@H]1CC[C@@]2(NC1)O[C@H]1C[C@H]3[C@@H]4CC=C5C[C@@H](O[C@@H]6O[C@H](CO)[C@@H](O[C@@H]7O[C@@H](C)[C@H](O)[C@@H](O)[C@H]7O)[C@H](O)[C@H]6O[C@@H]6O[C@@H](C)[C@H](O)[C@@H](O)[C@H]6O)CC[C@]5(C)[C@H]4CC[C@]3(C)[C@H]1[C@@H]2C` has an inhibition of 5.27%.
The inhibition of `CC(=O)N[C@@H](CS)C(=O)O` is reported as 4.25%.
`CSc1ccc2c(c1)C(N1CCN(C)CC1)Cc1ccccc1S2` (centres unmarked) has an inhibition of -14.2%.
The inhibition of `N#CC(C#N)=Cc1ccc(O)c(O)c1` is reported as 31.3%.
The inhibition of `CCn1cc(C(=O)O)c(=O)c2cc3c(cc21)OCO3` is reported as 6.47%.
`CCC(=O)NC[C@@H]1C[C@H]1c1cccc2c1CCO2` has an inhibition of 0.34%.
`CCS(=O)(=O)Nc1ccc2c(c1)/C(=C(/Nc1ccc(CN3CCCCC3)cc1)c1ccccc1)C(=O)N2` gave an inhibition of 6.77%.
For `NCc1ccccc1CC(=O)N[C@@H]1C(=O)N2C(C(=O)O)=C(CSc3nnnn3CC(=O)O)CS[C@H]12`, the inhibition was 5.92%.
`CC(=O)NCC(=O)N1[C@@H]2CC[C@H]1c1ccc(Nc3ncc(C(F)(F)F)c(NC4CCC4)n3)cc12` gave an inhibition of -2.47%.

Sample 3
Target: Fragile X messenger ribonucleoprotein 1, C-terminal low-complexity region (Fmr1, Mus musculus, UniProt P35922)
Method: RNA Bind-n-Seq
Molecule type: RNA
Matrix: in vitro
Tested at: 200 nM
Setting: whole 134-nt RNA, ends assumed
With: 150 mM KCl
Relative to: input library
Reading: higher = stronger binding
Constant ends, left off below: GGGAGUUCUACAGUCCGACGAUC … UGGAAUUCUCGGGUGUCAAGG
`UCAAGUCCUGUGCUACACAUCGUAUGUACCGAAUCGGGAAGGAAGGGGAAGGGGAAAGUAUUAUGUUACGCCGUUCGGAUCUGCACUUCC` gave a log2 enrichment of 0.802.
For `UCAAGUCCUGUGCUACACAUCGUAUGUACCGAAUCGGUUUUUUUGGUUUGGUGGAAAGUAUUAUGUUACGCCGUUCGGAUCUGCACUUCC`, the log2 enrichment was -0.708.
`AAGUCCUGUGCUACACAUCGUAUGUACCGAAUCGGGUUUGGGUGGGAAAAAAAGGGAAAGUAUUAUGUUACGCCGUUCGGAUCUGCACUU` gave a log2 enrichment of 0.537.
For `CAAGUCCUGUGCUACACAUCGUAUGUACCGAAUCGGGAGGGAAAAAGGGAAAGGGAAAGUAUUAUGUUACGCCGUUCGGAUCUGCACUUC`, the log2 enrichment was 0.621.
`AAGUCCUGUGCUACACAUCGUAUGUACCGAAUCGGGGUUUUUGGGGAGGGGUGGGGAAAGUAUUAUGUUACGCCGUUCGGAUCUGCACUU` has a log2 enrichment of 1.03.
The log2 enrichment of `CACAGACAACACGCACCCACACAGACACAGAGGGAAGGGGUUGGGAUGGGGACAGGGUGCACAGCAGGGCGGGGUAGGAAAACAGCCCCU` is reported as 0.849.

Sample 4
Target: Interferon regulatory factor 7, full length, phosphomimetic (IRF7, Homo sapiens, UniProt Q92985, residues 1-503, S101K/S471D/S472D/S475D/S476D/S477D/S483D/S484D/S487D)
UniProt Q92985, sequence (whole entry, unmodified, looked up): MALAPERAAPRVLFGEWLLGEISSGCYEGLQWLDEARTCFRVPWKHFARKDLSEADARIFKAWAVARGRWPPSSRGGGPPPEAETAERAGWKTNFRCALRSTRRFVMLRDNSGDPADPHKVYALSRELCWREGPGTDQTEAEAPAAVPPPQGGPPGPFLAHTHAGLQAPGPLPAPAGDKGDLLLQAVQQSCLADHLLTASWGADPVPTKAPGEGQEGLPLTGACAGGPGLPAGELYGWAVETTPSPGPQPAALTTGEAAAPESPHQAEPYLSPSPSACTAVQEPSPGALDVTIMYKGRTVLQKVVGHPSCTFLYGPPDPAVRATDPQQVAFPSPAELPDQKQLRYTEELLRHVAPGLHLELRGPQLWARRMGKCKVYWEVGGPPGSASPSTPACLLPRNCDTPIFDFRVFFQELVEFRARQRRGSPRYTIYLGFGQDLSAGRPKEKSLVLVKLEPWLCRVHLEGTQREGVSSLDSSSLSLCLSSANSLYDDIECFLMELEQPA
Method: protein-binding microarray
Molecule type: double-stranded DNA, one strand shown
Matrix: in vitro
Tested at: 250 nM
Setting: 60-bp whole probe
With: salmon DNA 0.4 mg/ml
Relative to: random background probes
Reading: higher = stronger binding
Constant ends, left off below: GCCTAGCAC … GTCTTGATTCGCTTGACGCTGCTG
For `GACCATATCGGGACTGGAGACGTGCTA`, the log fluorescence was -0.0421 z-score.
For `GTTTCATTCCTGATCTCTGGGTGCTAG`, the log fluorescence was 5.29 z-score.
With `GACGGTATCGCCTTTCGGGACGTGCTA` the log fluorescence was 0.385 z-score.
The log fluorescence of `TTAGATATCGGGACTGGATTTGTGCTA` is reported as 0.231 z-score.
With `AACGGACTGGGTTTCGGGACGTGCTAG` the log fluorescence was 1.98 z-score.
`GACGAACTGAGTCTCGAGAGGTGCTAG` gave a log fluorescence of -0.166 z-score.
`GACGATATCAGTTTTGAGACGTGCTAG` gave a log fluorescence of 0.421 z-score.
`TTAGATATCGGGTATCGACTAGTGCTA` has a log fluorescence of 0.188 z-score.

Sample 5
Target: Replicase polyprotein 1ab, main protease (rep, Severe acute respiratory syndrome coronavirus 2, UniProt P0DTD1)
Effect on: enzyme activity
Action: inhibitor
`Cc1ccc(-n2sc3ccccc3c2=O)cc1` gave an IC50 of 0.05 µM.
With `O=C(NC(=S)N1CCCc2ccccc21)c1ccccc1` the IC50 was over 20 µM.
For `C[S+]([O-])CCCCN=C=S` (centres unmarked), the IC50 was over 20 µM.

Sample 6
Target: Histone acetyltransferase KAT6A, both winged helices, GST fusion (KAT6A, Homo sapiens, UniProt Q92794, residues 1-181)
Method: protein binding microarray
Molecule type: double-stranded DNA, one strand shown
Matrix: in vitro
Tested at: not given
Setting: 8-mer, flanks averaged, mean of 2 arrays, mostly near background
Relative to: not given
Reading: higher = stronger binding
Target sequence (chain): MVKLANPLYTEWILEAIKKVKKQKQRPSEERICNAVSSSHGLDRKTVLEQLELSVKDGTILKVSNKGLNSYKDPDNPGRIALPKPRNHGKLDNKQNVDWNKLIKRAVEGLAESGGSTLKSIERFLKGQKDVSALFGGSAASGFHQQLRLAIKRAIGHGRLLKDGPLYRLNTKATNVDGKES
`ATGGACGG` has an E-score of 0.159.
For `CGCAGACG`, the E-score was 0.256.
With `ATCATATG` the E-score was -0.045.
For `GTACGAAC`, the E-score was 0.142.
The E-score of `AGTCTAGA` is reported as -0.181.
`CACCAAAC` gave an E-score of 0.0183.
The E-score of `GAGCAGAC` is reported as -0.0021.
`AAAACTTG` gave an E-score of -0.125.
